Assay results pooled from the literature.
Numbered parts are unrelated; each lists some results of a single study.

Block 1
Target: Myc proto-oncogene protein, bHLH-zipper, MAX partner unstated (MYC, Homo sapiens, UniProt P01106, residues 368-449)
UniProt P01106, sequence (368-449, looked up): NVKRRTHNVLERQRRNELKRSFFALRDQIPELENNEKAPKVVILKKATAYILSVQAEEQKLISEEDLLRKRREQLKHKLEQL
Technique: protein-binding microarray
Molecule type: double-stranded DNA, one strand shown
Matrix: in vitro
Tested at: not given
Setting: k-mer, scored over probes, only values ≥0.25
Direction: higher = stronger binding
| Sequence | E-score |
| --- | --- |
| ACGCCTAT | 0.274 |
| CCCTCGCG | 0.292 |
| ACGCCGCG | 0.304 |
| AGCGTGGA | 0.357 |
| GGCATGCC | 0.38 |
| CACATGGA | 0.476 |
| CTCAGCAC | 0.283 |
| GCCCCGCC | 0.358 |
| GCGCGGCC | 0.252 |
| GCTGAGCA | 0.306 |
| ACGCACGC | 0.43 |
| CTGGCCAC | 0.265 |
| GGGCACGA | 0.279 |
| CAACGAGG | 0.341 |
| ACGCGCGG | 0.36 |

Block 2
Target: Histone acetyltransferase KAT6A, winged helix 1, GST fusion (KAT6A, Homo sapiens, UniProt Q92794, residues 1-85)
Technique: protein binding microarray
Molecule type: double-stranded DNA, one strand shown
Matrix: in vitro
Tested at: not given
Setting: 8-mer, flanks averaged, mean of 2 arrays, mostly near background
Baseline: not given
Direction: higher = stronger binding
Target sequence (chain): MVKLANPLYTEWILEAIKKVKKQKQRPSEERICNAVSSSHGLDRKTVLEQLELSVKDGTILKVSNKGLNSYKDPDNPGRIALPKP
| Sequence | E-score |
| --- | --- |
| ATATGAAG | 0.000615 |
| CGGGGTCA | 0.328 |
| AGGGATGA | -0.232 |
| CAAAGGCG | 0.142 |
| GAGTTACA | -0.0221 |
| AAGCGGAC | 0.233 |
| CACTTATA | -0.0593 |
| GGACGATA | -0.0858 |
| ATCATATC | 0.0396 |
| CGCGGACG | 0.434 |
| GCATAATA | -0.0547 |
| AGGCGTGG | 0.041 |
| ACTGGAGC | 0.104 |
| TAAGAGAA | -0.138 |
| CGGCATTC | 0.366 |
| CAACGGGA | 0.0584 |
| TTATGGAA | -0.146 |
| CAGTAATG | -0.0589 |
| TCAGGCAA | -0.293 |
| GAGTAAAA | -0.095 |

Block 3
Target: Ras GTPase-activating protein-binding protein 1, RRM domain (G3BP1, Homo sapiens, UniProt Q13283)
UniProt Q13283, sequence (whole entry, looked up): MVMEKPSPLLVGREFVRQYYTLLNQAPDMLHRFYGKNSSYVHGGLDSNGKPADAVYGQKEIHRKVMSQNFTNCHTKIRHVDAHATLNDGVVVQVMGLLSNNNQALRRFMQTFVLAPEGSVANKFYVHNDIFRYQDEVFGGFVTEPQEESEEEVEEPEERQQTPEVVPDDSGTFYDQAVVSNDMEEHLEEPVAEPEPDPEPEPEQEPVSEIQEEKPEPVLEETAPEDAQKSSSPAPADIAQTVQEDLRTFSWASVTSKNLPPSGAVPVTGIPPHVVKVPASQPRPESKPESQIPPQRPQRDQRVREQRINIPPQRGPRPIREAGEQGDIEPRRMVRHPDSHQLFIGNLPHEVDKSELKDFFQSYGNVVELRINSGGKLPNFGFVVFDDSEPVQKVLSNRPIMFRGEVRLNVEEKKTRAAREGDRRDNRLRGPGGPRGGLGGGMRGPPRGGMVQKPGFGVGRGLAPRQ
Technique: RNA Bind-n-Seq
Molecule type: RNA
Matrix: in vitro
Tested at: 1 µM
Setting: whole 134-nt RNA, ends assumed
With: 150 mM KCl
Baseline: input library
Direction: higher = stronger binding
| Sequence | log2 enrichment |
| --- | --- |
| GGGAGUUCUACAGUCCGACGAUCGUCCUGUGCUACACAUCGUAUGUACCGAAUCAAACCCAAAUUUUUAAACCCCCCCAAAAAAGUAUUAUGUUACGCCGUUCGGAUCUGCACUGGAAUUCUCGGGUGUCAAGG | -0.195 |
| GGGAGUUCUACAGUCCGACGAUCCACAGACAACACGCACCCACACAGACACAGAGGGAAGGGGUUGAAAUGGGGACAGGGUGCACAGCAGGGCGGGGUAGGACCCCAGCCCCUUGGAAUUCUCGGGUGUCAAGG | -0.139 |
| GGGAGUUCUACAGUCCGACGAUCACCAUGCAGGUGGGCAUCUUUGGGAAGUGGGGCAAGGGGGGGAUAGGGAGGGGGGUAACAAAUUGGGAACAGGUGGUCCCAGGUCGUUUCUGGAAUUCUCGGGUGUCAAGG | -0.459 |
| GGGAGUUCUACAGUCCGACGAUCUAACUUUAGAGGAGGAUCUGAUGGAUAUGGCAGUGGACGUGGAUUUGGGGAUGGCUAUAAUGGGUAUGGAGGAGGAACUGGAGGUGGCAAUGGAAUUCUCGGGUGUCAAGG | -0.567 |
| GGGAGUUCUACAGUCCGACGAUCUCAAGUCCUGUGCUACACAUCGUAUGUACCGAAUCGGGGUUUGGUUUGGGUUUGGAAAGUAUUAUGUUACGCCGUUCGGAUCUGCACUUCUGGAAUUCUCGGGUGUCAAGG | -0.349 |
| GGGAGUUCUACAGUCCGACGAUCUGGCCCUGGUGGCAUGCGGGGAGGAAGAGGUGGCCUCAUGGAUCGUGAUGGUCCCGGUGGAAUGUUCAGAGGUGGCCGUGGUGGAGACAGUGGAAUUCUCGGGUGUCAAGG | 0.746 |
| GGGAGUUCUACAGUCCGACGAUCUGUGGACGACAAUGAGGAGACCAUCAAAAAGCGGCUGGAGACCUAUUACAAGGCCACAGAACCUGUCAUCGCCUUCUAUGAGAAACGUGGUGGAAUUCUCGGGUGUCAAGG | -0.0412 |
| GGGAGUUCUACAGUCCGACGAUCUCAAGUCCUGUGCUACACAUCGUAUGUACCGAAUCGGGGUUGGGUUGGUUGGGGAAAGUAUUAUGUUACGCCGUUCGGAUCUGCACUUCCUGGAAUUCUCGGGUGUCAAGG | 0.248 |
| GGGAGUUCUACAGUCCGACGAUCCGGCAGUAGCAGCAGCGCCGGGUCCCGUGCGGAGGUGCUCCUCGCAGAGUUGUUUCUCGAGCAGCGGCAGUUCUCACUACAGCGCCAGGAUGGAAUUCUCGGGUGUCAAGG | 0.14 |
| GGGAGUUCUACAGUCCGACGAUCUCAAGUCCUGUGCUACACAUCGUAUGUACCGAAUCGGGUUUGGGAAAGGGUGGGAAAGUAUUAUGUUACGCCGUUCGGAUCUGCACUUCCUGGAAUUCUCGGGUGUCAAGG | 0.727 |

Block 4
Substance: PhoQ, residues 284 288 289 292 302 303 TLSLKA
Technique: Sort-seq
Measured: YFP reporter
Matrix: E. coli
Setting: PhoQ-PhoP variant library
With: 10 µM Mg2+
Baseline: high Mg2+ state
Direction: higher = stronger signaling
| target | fold induction |
| --- | --- |
| PhoP, residues 12 14 15 18 19 NFFVT (Escherichia coli, UniProt P23836) | 2.18 |
| PhoP, residues 12 14 15 18 19 TPWTL (Escherichia coli, UniProt P23836) | 97.9 |
| PhoP, residues 12 14 15 18 19 LHHYF (Escherichia coli, UniProt P23836) | 1.68 |
| PhoP, residues 12 14 15 18 19 VGHWL (Escherichia coli, UniProt P23836) | 0.648 |

For quick reference, copied from above (block 3):
| Sequence | log2 enrichment |
| --- | --- |
| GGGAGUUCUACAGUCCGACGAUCUGUGGACGACAAUGAGGAGACCAUCAAAAAGCGGCUGGAGACCUAUUACAAGGCCACAGAACCUGUCAUCGCCUUCUAUGAGAAACGUGGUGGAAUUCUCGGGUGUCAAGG | -0.0412 |
| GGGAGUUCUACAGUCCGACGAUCUCAAGUCCUGUGCUACACAUCGUAUGUACCGAAUCGGGGUUUGGUUUGGGUUUGGAAAGUAUUAUGUUACGCCGUUCGGAUCUGCACUUCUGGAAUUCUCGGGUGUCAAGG | -0.349 |
| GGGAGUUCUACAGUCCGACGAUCCGGCAGUAGCAGCAGCGCCGGGUCCCGUGCGGAGGUGCUCCUCGCAGAGUUGUUUCUCGAGCAGCGGCAGUUCUCACUACAGCGCCAGGAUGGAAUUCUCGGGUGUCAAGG | 0.14 |
| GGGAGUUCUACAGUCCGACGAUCUCAAGUCCUGUGCUACACAUCGUAUGUACCGAAUCGGGGUUGGGUUGGUUGGGGAAAGUAUUAUGUUACGCCGUUCGGAUCUGCACUUCCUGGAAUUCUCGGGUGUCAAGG | 0.248 |
| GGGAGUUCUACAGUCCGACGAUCUAACUUUAGAGGAGGAUCUGAUGGAUAUGGCAGUGGACGUGGAUUUGGGGAUGGCUAUAAUGGGUAUGGAGGAGGAACUGGAGGUGGCAAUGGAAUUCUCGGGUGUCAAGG | -0.567 |
